Measurements collected from several papers.
Every numbered part comes from another study and shows a few of its results, in no order.

Block 1
Target: Histone acetyltransferase KAT6A, both winged helices, GST fusion (KAT6A, Homo sapiens, UniProt Q92794, residues 1-181)
Method: protein binding microarray
Molecule type: double-stranded DNA, one strand shown
Matrix: in vitro
Concentration: not given
Setting: 8-mer, flanks averaged, mean of 2 arrays, mostly near background
Relative to: not given
Reading: higher = stronger binding
Residues (chain): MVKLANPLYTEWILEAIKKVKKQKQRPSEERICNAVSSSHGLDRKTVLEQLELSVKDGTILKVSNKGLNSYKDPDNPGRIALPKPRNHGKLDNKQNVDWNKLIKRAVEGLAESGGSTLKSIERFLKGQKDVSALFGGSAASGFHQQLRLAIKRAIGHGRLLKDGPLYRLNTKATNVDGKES
Strand	E-score
AACGCGCT	0.261
CTTATTTA	-0.105
GCATAACA	-0.214
CATTCCTA	-0.149
CTGTGAAC	-0.00709
CGTTGAAA	0.084
AACGAAGC	-0.0706
CTGCTTAA	-0.0968
AGTGGTTA	-0.244
ACTTTCTA	-0.0695
TCTTACCA	-0.0899
AGTAGCGG	0.159
AATTGTTC	0.037
CGGCTCAA	0.118
AGTCTGAC	-0.21
CGTCACTC	-0.058
CAAACTGC	0.0358
CTCAGAGA	-0.0456
CATTCGCA	0.103
GCTCAGAA	-0.00167
CTATAATA	-0.0192
TAATAAGA	-0.175
CCAACGTA	-0.134

Block 2
Target: RING finger protein unkempt homolog, zinc fingers 1-6, GST-SBP tag (UNK, Homo sapiens, UniProt Q9C0B0, residues 30-357)
Method: RNA Bind-n-Seq
Molecule type: RNA
Matrix: in vitro
Concentration: not given
Setting: RNA with constant flanks, human and mouse sites, ends assumed
Relative to: input RNA pool
Reading: higher = stronger binding
Target sequence (chain): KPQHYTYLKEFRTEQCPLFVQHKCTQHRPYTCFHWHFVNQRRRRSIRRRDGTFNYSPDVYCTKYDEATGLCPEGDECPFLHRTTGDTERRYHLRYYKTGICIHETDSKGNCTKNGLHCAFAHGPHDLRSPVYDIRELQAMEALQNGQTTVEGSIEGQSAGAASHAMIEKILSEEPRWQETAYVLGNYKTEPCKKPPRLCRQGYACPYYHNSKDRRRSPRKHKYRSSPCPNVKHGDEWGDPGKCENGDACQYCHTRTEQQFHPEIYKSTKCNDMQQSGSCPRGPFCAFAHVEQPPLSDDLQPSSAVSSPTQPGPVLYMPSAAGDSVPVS
Strand	bound/input enrichment [ratio]
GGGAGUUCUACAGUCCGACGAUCGGCAGGCCAGCACCUGGCUCAGUGUCAGUCUAUUUAUCAGAGGUGUAAAUAAUCCACACAUAGUUUUUCUCCUUUUAGAUUAUUUUGUAUUUGUUUAAAAAAUAUUUGUCAAAAUACAAACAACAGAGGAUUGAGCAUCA	34.1
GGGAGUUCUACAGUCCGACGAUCUAGUAAUGAAACCUGGAGGUCUGGGAAGUUGUGAAUUCCUAAAGUGACACUGUUGAUAAGCUGCUGAUGCCGUUGUCUGGCAGGUGGAAGGUGCAGCGGUCCUGUGAAUAUUCAGGAACUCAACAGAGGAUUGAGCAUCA	0.202
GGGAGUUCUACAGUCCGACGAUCAUGUGCAAGGAAAUUAUUCCAACUAGUGAAUUUAUUAACAGUAAGUUAACAGCAAAAGCAAAUAGGCAACUUCAAGAUCCUUUAGUAAUCAUGACAGGAAACAUCCCAACAUGGCUUACUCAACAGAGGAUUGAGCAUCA	3.11
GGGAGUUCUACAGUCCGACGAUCUUUGUCCUGGAAAUCUGGAAAGCUUGCUUUGUGGGACUCAUUGAGUCCCCCGAGGGCACGCAGGAGCUGAAGUGGACAGCUUUCACCUACCUCAAGAUUCCACAGGUCUUGGUGAAGUUGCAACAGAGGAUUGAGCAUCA	0.143
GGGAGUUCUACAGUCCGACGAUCUGAUAUAUAAACCUUAAGUGAAAUGAAAGAAAAAGAUCUAUUGCAGAUAUCUGAUGGAUGUAGUUUUCUUUUUUUAAAUUAGAAAUGCCACUUCUAUUGUAUUGUCUCACACAUGCUCUACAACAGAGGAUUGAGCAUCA	3.29
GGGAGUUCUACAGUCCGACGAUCUUUCUGGUGCAGCGAGCCCGGGAACUAGUGCCCCAGGACCUGUGGGCAGCCAAGGCAUGGCUGAUCACGGCCCGCAGCCUCUACCCGGCCGACUUCAACAUCCAGUAUGAAAUGUACACCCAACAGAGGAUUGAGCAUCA	0.0727
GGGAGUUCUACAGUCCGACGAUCUUAGGAAAAGCUACAAAUAACACUUACUUUGAAUCCUGCUGUCAAAUGUCUGCAUCAAGAUAGCACCCCUUUGUGGGAGGCCCUGAGUAUCUUCUCUUCCUCUACUGCCUAACUGUUGGUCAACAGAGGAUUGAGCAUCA	0.627
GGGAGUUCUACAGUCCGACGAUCGCAUCACAGAGUGAACUGCCAUUAAGACAUCCAAGGUUUUAUCCAAAGCUGUUUGCUGGUAUUAGACAGAAGGCAGUGUCGAGCAGCCCUUCUGGAAAUGUUGCAUGGCCAGUGCUCUAGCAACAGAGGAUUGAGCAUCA	0.169
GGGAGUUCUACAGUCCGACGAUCGUGACCCGGUCUCUGGACACUGUCAAUGGAAGGAUGGUUCUGCCCGUUGAUGAAAGCUUGACUGAGGCCUUGGGAAUCCGAUCCAAAUAUGCUUCUUUGCGAAAAGACAGCUUACUGAAACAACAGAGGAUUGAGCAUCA	0.0885
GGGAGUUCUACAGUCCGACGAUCUUGCCCUGUGAGUUGAGUUACAUCCUUUGUAGCAACACAGCAUCCUCCCAGGCACCUGCACAGUUCUCCAUAGCAGCUUUGCUCCAAGAUACACAAACAUAGGCAAACCACAGGCUGUGUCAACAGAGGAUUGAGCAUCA	0.334
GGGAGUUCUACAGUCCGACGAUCCCUGAGGUGCGGCACCACUGUCCCAACACUCCCAUCAUCCUAGUGGGAACUAAACUUGAUCUUAGGGAUGAUAAAGACACGAUCGAGAAACUGAAGGAGAAGAAGCUGACUCCCAUCACCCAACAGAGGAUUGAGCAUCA	0.379

Block 3
Target: Sal-like protein 4, full length isoform B (SALL4, Homo sapiens, UniProt Q9UJQ4-2, residues 1-616)
Method: universal PBM
Molecule type: double-stranded DNA, one strand shown
Matrix: in vitro
Concentration: not given
Setting: 8-mer, flanks averaged, mean of replicates
Reading: higher = stronger binding
Residues (chain): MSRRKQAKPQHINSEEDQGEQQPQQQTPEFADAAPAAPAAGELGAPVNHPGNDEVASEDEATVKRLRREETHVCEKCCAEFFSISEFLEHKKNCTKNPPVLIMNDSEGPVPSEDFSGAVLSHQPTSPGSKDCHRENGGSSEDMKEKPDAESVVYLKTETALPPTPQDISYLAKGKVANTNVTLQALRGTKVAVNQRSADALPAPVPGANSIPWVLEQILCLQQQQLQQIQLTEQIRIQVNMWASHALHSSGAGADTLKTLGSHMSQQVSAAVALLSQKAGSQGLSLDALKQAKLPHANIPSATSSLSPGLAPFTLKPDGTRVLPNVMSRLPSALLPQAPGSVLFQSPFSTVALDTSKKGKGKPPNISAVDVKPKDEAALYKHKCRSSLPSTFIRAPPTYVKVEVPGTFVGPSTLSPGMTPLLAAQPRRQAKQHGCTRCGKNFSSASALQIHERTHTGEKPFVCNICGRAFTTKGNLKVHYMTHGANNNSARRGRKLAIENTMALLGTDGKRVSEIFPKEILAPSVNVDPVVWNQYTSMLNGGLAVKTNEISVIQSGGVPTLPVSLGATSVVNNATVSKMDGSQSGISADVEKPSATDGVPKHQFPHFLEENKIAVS
Strand	E-score
ATGCAAGG	-0.0061
TACATGGA	0.155
CGGTGATA	0.136
CTCATACC	0.157
AAAGCGGC	-0.231
ATCACATG	0.13
CTATCCCA	-0.0321
CCTCTTTA	0.0907
CACCTGCC	-0.214
GCAGTTCA	-0.0617
AAGACAAT	0.271
GTCGTAAA	0.102
CCGGATAC	-0.231
CAGGCTGC	-0.177
CTAACGCA	0.01
CACCTGGA	-0.12
ACCGTCCC	-0.0555
ATGTCGTC	-0.0948
ACCAATGC	-0.122

Block 4
Target: RNA binding protein fox-1 homolog 2, RRM domain, GST-SBP tag (RBFOX2, Homo sapiens, UniProt O43251-10, residues 100-194)
Method: RNA Bind-n-Seq
Molecule type: RNA
Matrix: in vitro
Concentration: 365 nM
Setting: natural RNA segment, single round, ends assumed
Relative to: no-protein control
Reading: higher = stronger binding
Target sequence (chain): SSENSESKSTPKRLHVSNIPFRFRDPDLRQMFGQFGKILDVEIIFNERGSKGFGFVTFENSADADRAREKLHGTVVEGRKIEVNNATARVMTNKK
Strand	RBNS enrichment (R)
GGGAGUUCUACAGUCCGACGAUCACUAGACCUUUGCUACCACUGUCUCUGGGUUUUUGUAUCAGUCCCAACUUCUCAGGCUGUCUUGCCCAAGAUGCAGGACCCCUACCUAGCCCACCUCCCAAGGCACCUGUUGGAAUUCUCGGGUGCCAA	0.238
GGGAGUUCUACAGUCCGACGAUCCUUUCUAAACAGCCCCAGUGUUGAAGUCUAUACUUAAUUUUGUUCUGUUCUGUUUUGUUUUCCUGUUUUGUUUGCAAAAUGGUAAGGGGGGUGUUGGGAGGGGAUGGGUGUGGAAUUCUCGGGUGCCAA	1.58
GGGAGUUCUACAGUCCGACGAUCCACAGCCUAGAGUUCAGGAAAGUUAAUCCACACAGAAGCACAAUUUUGUCCUCUUCCAGACACUGUUGCCUCUACCUAGUUAGACAAAUAGGAUUUGACCUACAUUCUGUUGGAAUUCUCGGGUGCCAA	0.345
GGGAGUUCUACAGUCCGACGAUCUUUUAGCUUAAAAGCAUAGUGAAGAUGCUUGAGGAAGACUUUGCUACCUGGGGUGUGUAGACAGACAGACUGAGAGCUAUCAGCAUUUGAAGGCCCAGCCCUUGACUCUGUGGAAUUCUCGGGUGCCAA	3.49
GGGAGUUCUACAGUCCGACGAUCCUGACCAGGCCCCUCCCCUAAGACUUCUUGGAUAUUUCCCAGGAGAAUCCCACAUUCACCGCCAAACCCCUAUCCCUACCCAACACAAGCUGCCCUCCUGAAAGGCAAGGUGGAAUUCUCGGGUGCCAA	0.877
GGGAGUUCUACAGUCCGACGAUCCUCAUUUAAUUUUUAUUAAACAUGCUCAGUACCUGUGUUGAGAAAAGGCUUUCUUUAUCCUAAAGAUUAUUACCUUUUUAAAGUGCUCUUAUAUUUUCAUGAGUUUUUAUUGGAAUUCUCGGGUGCCAA	0.484
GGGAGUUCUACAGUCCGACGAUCCUGUCAUGAUAGAGCUGUAAUUCUGGUGUCACACGGAUCACUUACUGGAGGUGUAUAAUAUGAGAUAGUGAGGCAGACAGACAGACAGACAGACAUGGGACUACAUCAUAUGGAAUUCUCGGGUGCCAA	2.74
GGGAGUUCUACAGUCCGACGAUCUGAAACCUCUUAUUACAUGCUCUUGUAUGUUUUUAAGCAUAAUAAGCUAACUGGAUUUGGGUAUAUGCCCUUUAAGUUAAAAAUAAUAUGUAUUUCUAAUUUGCAUAUUUUGGAAUUCUCGGGUGCCAA	0.478
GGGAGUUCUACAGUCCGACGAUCGCAGCCCCUCCAGCUGCUGGUGAUCUCACCCCUGGGACAUUUUUCCAAUAAAGGUUCUGGACAAACUGAACUGACUGGUUCCUGUAUGGUAUGCUGAAGACAUCUCUACAUGGAAUUCUCGGGUGCCAA	0.376
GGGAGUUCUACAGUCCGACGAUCCCAUGUUUAGGAAACACACUGUACCCUGCUCCCAGCAUCACAAGGCACUUGUCUACAAGUGUGUCCCAACACAGUCCUGGGCCACUUUCCCCACCCUGGGGAGCACAUAAUGGAAUUCUCGGGUGCCAA	1.33
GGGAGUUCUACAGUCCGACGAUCUGCAACAGAACACUUUGGUCUUCCUACACCAAGUCUGUGAGGGCAUCCAAGACUGAAUGAAAGCGCUUUUCUUAUGCAUACAAUGUGAGCAAGAACAAGAACUGUUUAAGUGGAAUUCUCGGGUGCCAA	0.38
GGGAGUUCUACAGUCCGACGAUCUUGGUCCCUCUAAUGAUCCUCCAGCCUCAUCUAAUGCCCCCCAAAGACUGAUACAAGUAACCUCCCCUCUGCUUAGGUGUCACUUUCUCAGCAUAUCAAGUUUAGGCAGCUGGAAUUCUCGGGUGCCAA	0.673
